Measurements collected from several papers.
Every numbered part comes from another study and shows a few of its results, in no order. Values joined by “and” are separate records of one study, mostly repeats; a detail may differ.
UniProt P57058, sequence (whole entry, looked up): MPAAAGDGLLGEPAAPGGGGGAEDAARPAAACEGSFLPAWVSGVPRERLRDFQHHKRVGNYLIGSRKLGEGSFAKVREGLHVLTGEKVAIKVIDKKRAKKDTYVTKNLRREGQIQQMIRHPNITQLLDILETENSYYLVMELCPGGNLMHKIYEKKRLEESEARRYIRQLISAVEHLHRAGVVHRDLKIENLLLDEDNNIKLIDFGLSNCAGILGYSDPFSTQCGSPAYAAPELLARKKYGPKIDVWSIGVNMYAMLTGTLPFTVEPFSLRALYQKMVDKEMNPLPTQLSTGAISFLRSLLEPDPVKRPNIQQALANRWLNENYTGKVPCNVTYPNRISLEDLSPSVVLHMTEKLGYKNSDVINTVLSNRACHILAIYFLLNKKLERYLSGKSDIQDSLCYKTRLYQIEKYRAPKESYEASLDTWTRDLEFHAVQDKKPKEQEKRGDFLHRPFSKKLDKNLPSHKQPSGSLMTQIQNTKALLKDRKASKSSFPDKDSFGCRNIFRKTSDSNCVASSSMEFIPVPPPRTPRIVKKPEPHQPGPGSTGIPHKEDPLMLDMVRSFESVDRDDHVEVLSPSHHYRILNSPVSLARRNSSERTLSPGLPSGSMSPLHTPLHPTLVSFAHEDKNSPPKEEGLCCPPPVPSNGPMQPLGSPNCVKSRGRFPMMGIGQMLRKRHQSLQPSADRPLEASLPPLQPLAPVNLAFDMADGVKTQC
UniProt P78368, sequence (whole entry, looked up): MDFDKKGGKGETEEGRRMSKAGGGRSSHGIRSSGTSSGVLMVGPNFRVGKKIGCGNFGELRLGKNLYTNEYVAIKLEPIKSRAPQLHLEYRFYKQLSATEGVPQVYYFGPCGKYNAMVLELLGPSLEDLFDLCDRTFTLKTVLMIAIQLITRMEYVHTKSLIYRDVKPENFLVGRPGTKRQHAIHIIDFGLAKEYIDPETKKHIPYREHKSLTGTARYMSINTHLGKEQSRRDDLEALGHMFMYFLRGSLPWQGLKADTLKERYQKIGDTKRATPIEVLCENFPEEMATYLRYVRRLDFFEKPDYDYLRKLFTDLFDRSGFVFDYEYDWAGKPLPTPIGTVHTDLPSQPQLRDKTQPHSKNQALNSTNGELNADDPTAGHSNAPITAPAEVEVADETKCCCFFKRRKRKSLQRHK
UniProt P21860, sequence (whole entry, looked up): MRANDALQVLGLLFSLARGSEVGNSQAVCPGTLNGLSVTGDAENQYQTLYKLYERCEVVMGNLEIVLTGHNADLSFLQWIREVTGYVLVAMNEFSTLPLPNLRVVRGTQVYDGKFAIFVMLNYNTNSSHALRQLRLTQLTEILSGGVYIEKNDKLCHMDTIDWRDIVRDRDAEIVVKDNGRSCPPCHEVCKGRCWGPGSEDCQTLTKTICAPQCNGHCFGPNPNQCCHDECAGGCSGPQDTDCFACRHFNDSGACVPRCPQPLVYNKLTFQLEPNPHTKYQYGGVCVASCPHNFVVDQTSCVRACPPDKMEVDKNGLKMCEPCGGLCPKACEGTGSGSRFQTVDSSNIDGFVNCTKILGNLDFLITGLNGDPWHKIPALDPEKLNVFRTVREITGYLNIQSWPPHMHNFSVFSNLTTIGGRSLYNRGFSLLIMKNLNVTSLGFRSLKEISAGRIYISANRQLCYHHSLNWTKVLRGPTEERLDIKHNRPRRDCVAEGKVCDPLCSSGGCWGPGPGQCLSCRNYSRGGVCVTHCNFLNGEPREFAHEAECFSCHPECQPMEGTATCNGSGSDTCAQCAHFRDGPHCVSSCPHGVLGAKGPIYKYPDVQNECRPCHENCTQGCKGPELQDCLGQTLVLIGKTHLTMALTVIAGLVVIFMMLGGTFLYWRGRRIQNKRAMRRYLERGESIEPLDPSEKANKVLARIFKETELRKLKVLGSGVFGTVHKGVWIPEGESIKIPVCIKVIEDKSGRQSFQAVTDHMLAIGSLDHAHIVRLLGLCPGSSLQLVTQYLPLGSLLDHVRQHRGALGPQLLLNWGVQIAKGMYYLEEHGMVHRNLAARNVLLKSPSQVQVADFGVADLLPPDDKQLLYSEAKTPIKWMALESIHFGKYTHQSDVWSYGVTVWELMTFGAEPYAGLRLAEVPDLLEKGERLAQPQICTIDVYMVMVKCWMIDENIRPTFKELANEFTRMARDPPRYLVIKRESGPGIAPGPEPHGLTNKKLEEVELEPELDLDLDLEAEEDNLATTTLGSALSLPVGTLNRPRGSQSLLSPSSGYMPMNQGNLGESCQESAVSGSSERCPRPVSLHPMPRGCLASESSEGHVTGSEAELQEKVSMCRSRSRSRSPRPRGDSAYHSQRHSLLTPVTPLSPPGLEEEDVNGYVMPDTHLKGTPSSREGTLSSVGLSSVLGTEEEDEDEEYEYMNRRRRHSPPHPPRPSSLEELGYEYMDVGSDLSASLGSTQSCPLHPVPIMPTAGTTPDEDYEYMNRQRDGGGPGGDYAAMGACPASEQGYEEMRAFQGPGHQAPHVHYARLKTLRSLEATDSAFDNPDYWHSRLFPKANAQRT
UniProt Q13546, sequence (whole entry, looked up): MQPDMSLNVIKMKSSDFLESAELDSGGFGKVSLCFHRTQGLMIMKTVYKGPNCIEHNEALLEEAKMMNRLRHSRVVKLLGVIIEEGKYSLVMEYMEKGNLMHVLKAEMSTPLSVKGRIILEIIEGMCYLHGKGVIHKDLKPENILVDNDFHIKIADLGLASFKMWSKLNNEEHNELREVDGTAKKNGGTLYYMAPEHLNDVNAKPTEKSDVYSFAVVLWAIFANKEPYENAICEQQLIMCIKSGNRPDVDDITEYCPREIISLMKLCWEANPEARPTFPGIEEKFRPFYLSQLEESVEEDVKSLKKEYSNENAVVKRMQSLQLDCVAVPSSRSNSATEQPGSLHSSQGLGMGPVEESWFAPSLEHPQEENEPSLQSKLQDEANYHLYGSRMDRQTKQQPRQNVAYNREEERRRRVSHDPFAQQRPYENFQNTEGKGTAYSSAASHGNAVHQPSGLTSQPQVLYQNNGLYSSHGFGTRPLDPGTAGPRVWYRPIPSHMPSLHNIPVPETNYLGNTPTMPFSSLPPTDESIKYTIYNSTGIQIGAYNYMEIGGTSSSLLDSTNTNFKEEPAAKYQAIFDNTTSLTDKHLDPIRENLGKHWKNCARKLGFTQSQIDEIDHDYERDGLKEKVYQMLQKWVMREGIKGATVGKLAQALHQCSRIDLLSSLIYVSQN
UniProt Q9UPE1, sequence (whole entry, looked up): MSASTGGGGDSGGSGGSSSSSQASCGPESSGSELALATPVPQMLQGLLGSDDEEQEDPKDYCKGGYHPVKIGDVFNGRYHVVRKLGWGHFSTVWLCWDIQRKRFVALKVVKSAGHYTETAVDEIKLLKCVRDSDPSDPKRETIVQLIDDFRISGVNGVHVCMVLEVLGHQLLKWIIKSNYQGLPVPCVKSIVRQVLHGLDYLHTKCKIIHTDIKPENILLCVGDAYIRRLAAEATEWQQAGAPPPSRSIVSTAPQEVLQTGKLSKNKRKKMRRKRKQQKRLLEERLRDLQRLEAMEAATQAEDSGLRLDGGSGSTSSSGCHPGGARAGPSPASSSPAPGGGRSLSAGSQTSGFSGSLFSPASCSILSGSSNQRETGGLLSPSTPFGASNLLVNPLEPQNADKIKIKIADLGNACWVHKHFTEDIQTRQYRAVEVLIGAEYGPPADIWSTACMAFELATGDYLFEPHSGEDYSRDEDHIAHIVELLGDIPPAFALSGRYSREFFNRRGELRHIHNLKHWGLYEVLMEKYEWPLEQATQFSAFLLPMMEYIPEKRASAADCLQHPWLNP
UniProt P54646, sequence (whole entry, looked up): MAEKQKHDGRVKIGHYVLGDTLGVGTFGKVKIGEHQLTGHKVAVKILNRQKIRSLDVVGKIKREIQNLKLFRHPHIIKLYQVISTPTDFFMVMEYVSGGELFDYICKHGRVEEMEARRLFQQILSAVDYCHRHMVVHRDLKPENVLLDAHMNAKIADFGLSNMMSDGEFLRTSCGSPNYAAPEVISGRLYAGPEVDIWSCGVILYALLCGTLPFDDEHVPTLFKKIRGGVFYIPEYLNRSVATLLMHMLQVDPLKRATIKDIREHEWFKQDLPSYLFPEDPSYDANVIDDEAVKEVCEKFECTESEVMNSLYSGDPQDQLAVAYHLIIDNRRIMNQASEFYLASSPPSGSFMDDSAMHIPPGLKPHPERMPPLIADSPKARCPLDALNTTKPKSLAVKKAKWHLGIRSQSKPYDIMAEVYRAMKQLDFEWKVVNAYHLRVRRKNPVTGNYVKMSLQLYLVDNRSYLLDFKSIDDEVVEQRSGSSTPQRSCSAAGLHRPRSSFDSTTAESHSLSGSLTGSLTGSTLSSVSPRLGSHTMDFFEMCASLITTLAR
UniProt P22455, sequence (whole entry, looked up): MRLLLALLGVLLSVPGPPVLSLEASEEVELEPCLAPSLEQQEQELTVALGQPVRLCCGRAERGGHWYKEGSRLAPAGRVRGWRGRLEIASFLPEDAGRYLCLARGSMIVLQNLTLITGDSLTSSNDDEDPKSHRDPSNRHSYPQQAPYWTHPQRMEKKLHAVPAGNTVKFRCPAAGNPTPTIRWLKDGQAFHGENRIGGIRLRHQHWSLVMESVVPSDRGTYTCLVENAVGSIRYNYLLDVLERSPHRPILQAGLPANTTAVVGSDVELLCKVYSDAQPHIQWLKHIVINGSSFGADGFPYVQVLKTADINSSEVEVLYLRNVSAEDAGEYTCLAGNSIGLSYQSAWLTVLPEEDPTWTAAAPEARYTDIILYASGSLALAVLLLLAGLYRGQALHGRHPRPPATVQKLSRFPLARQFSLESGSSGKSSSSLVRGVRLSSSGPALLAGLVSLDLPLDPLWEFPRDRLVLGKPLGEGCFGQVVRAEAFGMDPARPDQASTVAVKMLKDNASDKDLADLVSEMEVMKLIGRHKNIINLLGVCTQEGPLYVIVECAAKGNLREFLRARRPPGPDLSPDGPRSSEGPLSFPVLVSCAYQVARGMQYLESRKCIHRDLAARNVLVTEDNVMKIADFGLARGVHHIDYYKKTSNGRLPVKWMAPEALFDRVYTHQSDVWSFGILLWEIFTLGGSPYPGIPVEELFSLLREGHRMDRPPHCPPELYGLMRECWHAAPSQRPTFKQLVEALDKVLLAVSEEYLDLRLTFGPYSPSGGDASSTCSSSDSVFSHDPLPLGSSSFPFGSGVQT

Series 1
Target: Ephrin type-A receptor 8 (EPHA8, Homo sapiens, UniProt P29322)
Effect on: enzyme activity
Mode: inhibitor
Tested at: 0.5 µM
Relative to: control
Residues (P29322 1-1005): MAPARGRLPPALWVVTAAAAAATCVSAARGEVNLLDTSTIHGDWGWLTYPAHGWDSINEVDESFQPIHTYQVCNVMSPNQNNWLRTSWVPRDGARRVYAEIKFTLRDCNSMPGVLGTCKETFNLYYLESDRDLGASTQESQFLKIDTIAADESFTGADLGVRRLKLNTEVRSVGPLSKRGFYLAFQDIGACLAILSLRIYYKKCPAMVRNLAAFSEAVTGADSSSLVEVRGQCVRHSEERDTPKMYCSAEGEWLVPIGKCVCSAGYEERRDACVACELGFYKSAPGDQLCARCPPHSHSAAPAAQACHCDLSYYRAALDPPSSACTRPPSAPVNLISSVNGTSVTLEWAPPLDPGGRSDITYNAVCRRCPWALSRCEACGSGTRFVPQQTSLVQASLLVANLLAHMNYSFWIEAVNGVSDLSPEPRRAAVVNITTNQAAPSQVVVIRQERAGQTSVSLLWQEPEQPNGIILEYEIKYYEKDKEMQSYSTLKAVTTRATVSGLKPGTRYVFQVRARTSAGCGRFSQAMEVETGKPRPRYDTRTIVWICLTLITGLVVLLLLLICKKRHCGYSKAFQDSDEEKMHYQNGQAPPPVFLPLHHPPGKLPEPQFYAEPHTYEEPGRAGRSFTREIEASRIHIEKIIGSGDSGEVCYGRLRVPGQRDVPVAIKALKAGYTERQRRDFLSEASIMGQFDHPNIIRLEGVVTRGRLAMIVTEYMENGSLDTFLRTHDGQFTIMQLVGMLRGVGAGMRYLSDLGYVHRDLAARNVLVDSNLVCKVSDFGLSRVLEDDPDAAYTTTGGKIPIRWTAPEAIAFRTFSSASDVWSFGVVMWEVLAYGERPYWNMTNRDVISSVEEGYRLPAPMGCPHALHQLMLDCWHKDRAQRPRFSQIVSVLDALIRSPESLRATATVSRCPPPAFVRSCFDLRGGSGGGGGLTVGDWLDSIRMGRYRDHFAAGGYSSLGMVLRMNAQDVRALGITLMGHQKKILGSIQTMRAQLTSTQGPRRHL
Structure (SMILES) | remaining activity
O=C1Nc2ccccc2/C1=C\c1c(Cl)[nH]c2ccccc12 | 103%
O=C1Nc2ccc(Br)cc2/C1=C/c1cc2c([nH]1)CCCC2 | 94.5%
CCCNC(=O)Nc1ccc(Oc2ncnc3cc(OC)c(OC)cc23)cc1Cl | 105%
COc1ccc2c(c1)c(C1=C(c3c[nH]c4ccccc34)C(=O)NC1=O)cn2CCCN(C)C | 102%
Cc1ccc(S(=O)(=O)/C=C/C#N)cc1 | 96.8%
c1ccc(-c2n[nH]c3c2oc2ccccc23)cc1 | 102%
Cc1cc(Nc2cc(N3CCN(C)CC3)nc(Sc3ccc(NC(=O)C4CC4)cc3)n2)[nH]n1 | 77.1%
O=c1cc(N2CCOCC2)oc2c(-c3ccccc3)cccc12 | 103%
O=C1NC(=O)c2c1c1c3ccccc3[nH]c1n1cncc21 | 97.5%
COc1cccc(-c2cc(=O)c3ccccc3o2)c1N | 96.3%
O=Nc1c(-c2c(O)[nH]c3cc(Br)ccc23)[nH]c2ccccc12 | 97.6%
CN1CCN(c2ccc3nc(-c4c(N)c5c(F)cccc5[nH]c4=O)[nH]c3c2)CC1 | 105%
O=C1Cc2c([nH]c3ccc(Br)cc23)-c2ccccc2N1 | 101%
Oc1cccc(-c2nc(N3CCOCC3)c3oc4ncccc4c3n2)c1 | 93.9%
CCCCc1c(-c2ccc(OC)cc2)[nH]c2nccnc12 | 103%
CN(C)S(=O)(=O)c1ccc2c(c1)/C(=C/c1cc3c([nH]1)CCCC3)C(=O)N2 | 100%
O=C(c1cc2cc(O)ccc2[nH]1)c1cc2cc(O)ccc2[nH]1 | 92.9%

Series 2
Host: human
Sample: microsomes or S9
Tested at: 2 µM
Time: 0.5 h
SMILES | remaining compound [%]
CCOC(=O)C1=C(C)N=C2CC(C)(C)CC(O)=C2C1C (stereo not drawn) | 70.3
COc1cc(-c2nc(C)c(C(=O)NCCc3ccc(S(N)(=O)=O)cc3)s2)cc(OC)c1OC | 41.3
CCC(C)(NCc1nnc(-c2ccc(F)cc2)o1)c1nc(C)cs1 (stereo not drawn) | 25.7
C[C@@H](NC(=O)c1cc(S(=O)(=O)N(C)C)c[nH]1)c1ncc[nH]1 | 82.9
CCOCCOC1CCN(S(=O)(=O)c2cn(C)cn2)CC1 | > 99
NC(N)=NC(=O)c1cc2cc(Br)ccc2s1 | 83
COc1cccc(N(Cc2n[nH]c(=O)[nH]2)C(=O)CCC2CCCC2)c1 | 61.4
Cc1ccc(/C(Br)=C/CN(C)C)cc1 | 12.1
O=C(NCc1ccc(F)cc1)c1nc2c(cnn2-c2ccc(F)cc2)c(=O)[nH]1 | 91.4

Series 3
Structure (SMILES): CO[C@@H](C)c1c(Nc2ccc([C@H](N(C)C(=O)C3CCS(=O)(=O)CC3)C(F)(F)F)cc2)cnc2cc(Cl)nn12
Effect on: cell-free assay
Technique: competition with immobilised ligand
Tested at: 1 µM
target | remaining binding [%]
DAPK1 (Homo sapiens, UniProt P53355) | 88
FGFR4 (Homo sapiens, UniProt P22455) | 85
RIPK1 (Homo sapiens, UniProt Q13546) | 91
SRPK3 (Homo sapiens, UniProt Q9UPE1) | 100
PKN1 (Homo sapiens, UniProt Q16512) | 100
HUNK (Homo sapiens, UniProt P57058) | 100
CSNK1G2 (Homo sapiens, UniProt P78368) | 93
PRKAA2 (Homo sapiens, UniProt P54646) | 100
LRRK2 (Homo sapiens, UniProt Q5S007, G2019S) | 100
PIK3C2B (Homo sapiens, UniProt O00750) | 97
ERBB3 (Homo sapiens, UniProt P21860) | 100
EPHA4 (Homo sapiens, UniProt P54764) | 83

Series 4
Cell line: mouse MPNST tumor cells
Technique: high-content nuclear imaging
Measured: cell number
Tested at: 10 µM
Time: 12 h
Setting: mean of 2 replicates
Relative to: plate mean
Direction: higher = more cells
Structure (SMILES) | nuclei count
Clc1ccc(NN=C(c2ccccc2)c2ccccn2)nc1 | -4.29 z-score
O=C(CCCN1CCC(O)(c2ccc(Br)cc2)CC1)c1ccc(F)cc1 | -2.55 z-score
CCCc1cc(-c2nc(-c3ccc(C)cc3)cs2)ccn1 | -0.654 z-score
CCCn1c(=O)c2nc(C34CC5CC(CC3C5)C4)[nH]c2n(CCC)c1=O | 3.1 z-score
CN(Cc1ccc(C(C)(C)C)cc1)Cc1cccc2ccccc12 | 1.14 z-score
Cc1ncsc1-c1ccc(CNC(=O)[C@@H]2C[C@H](O)CN2C(=O)[C@@H](NC(=O)C2(C#N)CC2)C(C)(C)C)cc1 | 0.0966 z-score
Cc1ccnc(NS(=O)(=O)c2ccc(N)cc2)n1 | 4.42 z-score
CCC(C)N(C)C(=O)c1cc2ccccc2c(-c2ccccc2Cl)n1 (stereo not drawn) | 1.1 z-score
Nc1ncn(C2OC(CO)C(O)C2O)c(=O)n1 (stereo not drawn) | -0.298 z-score and -1.91 z-score
CC/C(=C(\c1ccccc1)c1ccc(OCCN(C)C)cc1)c1ccccc1 | -6.32 z-score
N[C@@H](Cc1cc(CP(=O)(O)O)cc(-c2ccccc2Cl)c1)C(=O)O | 1.66 z-score
CC(C)NC[C@@H](O)COc1cccc2ccccc12 | 3.54 z-score
CCC(CC)Nc1cc(C)nc(Oc2c(C)cc(C)cc2C)c1C | 1.35 z-score

A few entries again (series 3):
target | remaining binding [%]
DAPK1 (Homo sapiens, UniProt P53355) | 88
PKN1 (Homo sapiens, UniProt Q16512) | 100
HUNK (Homo sapiens, UniProt P57058) | 100
EPHA4 (Homo sapiens, UniProt P54764) | 83
ERBB3 (Homo sapiens, UniProt P21860) | 100
